Published values of several laboratories.
Each line is one published result; not all experiments were run side by side.
Organism: Escherichia coli

Compound	test	test system	setting	how to read	MIC
CSCC[C@H](NC(=O)[C@H](CC(C)C)NC(=O)[C@H](CCCCN)NC(=O)[C@H](Cc1c[nH]c2ccccc12)NC(=O)[C@H](CC(N)=O)NC(=O)[C@H](CCCCN)NC(=O)CNC(=O)[C@H](CC(C)C)NC(=O)[C@H](CC(C)C)NC(=O)[C@H](CCCCN)NC(=O)[C@@H](N)CCCCN)C(=O)O		TG1			> 25 µM
CCN1CCN(C(=O)N[C@@H](C(=O)N[C@@H]2C(=O)N3[C@@H]2SC(C)(C)[C@@H]3C(=O)O)c2ccccc2)C(=O)C1=O					500 µg/mL
CC[C@H](C)[C@H](NC(=O)[C@H](CC(C)C)NC(=O)[C@H](CCCNC(=N)N)NC(=O)[C@@H](N)CCCNC(=N)N)C(=O)N[C@@H](CCCNC(=N)N)C(=O)N[C@@H](CCCCN)C(=O)N[C@@H](CC(C)C)C(=O)N[C@@H](CCCCN)C(=O)NCC(=O)N[C@@H](CC(C)C)C(=O)N[C@@H](CCCCN)C(=O)N[C@@H](CCCCN)C(=O)N[C@@H](Cc1ccc(O)cc1)C(=O)N[C@@H](CC(C)C)C(=O)N[C@@H](Cc1ccc(O)cc1)C(=O)N[C@@H](Cc1ccccc1)C(=O)N[C@@H](CCCCN)C(=O)N[C@@H](CC(C)C)C(=O)N[C@@H](CCC(N)=O)C(=O)N[C@@H](CC(C)C)C(=O)N[C@@H](CC(C)C)C(=O)N[C@@H](CCCCN)C(=O)N[C@@H](CCCCN)C(N)=O		KCTC 1682, Mueller-Hinton broth	with: 150 mM NaCl		16 µM
CC[C@H](C)[C@H](NC(=O)[C@H](CC(C)C)NC(=O)[C@@H](NC(=O)[C@H](CCCNC(=N)N)NC(=O)[C@H](CCCNC(=N)N)NC(=O)[C@H](CCCNC(=N)N)NC(=O)[C@@H](N)CCCNC(=N)N)[C@@H](C)CC)C(=O)N[C@@H](CCCCN)C(=O)N[C@@H](CCCCN)C(=O)N[C@H](C(=O)N[C@@H](CC(C)C)C(=O)N[C@@H](CCCCN)C(=O)N[C@@H](CC(C)C)C(=O)N[C@@H](CCCCN)C(=O)N[C@@H](CO)C(=O)N[C@@H](CO)C(=O)N[C@@H](C)C(=O)N[C@@H](Cc1ccc(O)cc1)C(N)=O)C(C)C	checkerboard		24 h, 37 °C, alone, azithromycin plate		64 µM
CC(C)Oc1c(NC(=O)c2ccc(NC(=O)[C@H](CC(N)=O)NC(=O)c3ccc(NC(=O)c4ccc(C#N)c(Cl)c4)cc3)cc2)ccc(C(=O)Nc2ccc(C(=O)O)cc2)c1O		K12 ΔtolC			< 0.03 µg/mL
CC[C@H](C)[C@H](NC(=O)CNC(=O)[C@H](CC(=O)O)NC(=O)[C@H](CCC(=O)O)NC(=O)[C@@H](NC(=O)[C@H](CC(N)=O)NC(=O)[C@H](CCCNC(=N)N)NC(=O)CNC(=O)[C@@H](NC(=O)[C@H](CCCCN)NC(=O)[C@H](CCC(=O)O)NC(=O)[C@@H](NC(=O)[C@H](CCCCN)NC(=O)[C@H](CCCCN)NC(=O)[C@H](Cc1ccccc1)NC(=O)[C@@H](NC(=O)[C@H](CCCCN)NC(=O)[C@H](Cc1c[nH]c2ccccc12)NC(=O)[C@@H](N)CCCNC(=N)N)[C@@H](C)CC)[C@@H](C)CC)C(C)C)C(C)C)C(=O)N[C@H](C(=O)N[C@@H](CCCCN)C(=O)N[C@@H](C)C(=O)NCC(=O)N1CCC[C@H]1C(=O)N[C@@H](C)C(=O)N[C@H](C(=O)N[C@@H](C)C(=O)N[C@H](C(=O)N[C@H](C(=O)NCC(=O)N[C@@H](CCC(N)=O)C(=O)N[C@@H](C)C(=O)N[C@@H](C)C(=O)N[C@H](C(=O)N[C@H](C(=O)N[C@H](C(=O)N[C@@H](CCCCN)C(N)=O)C(C)C)C(C)C)[C@@H](C)O)C(C)C)C(C)C)C(C)C)[C@@H](C)CC		K1 ATCC 700973, Mueller-Hinton broth	16 h, 37 °C	growth inhibition over 99%	8 µM
CC[C@H](C)[C@H](NC(=O)[C@H](CCCCN)NC(=O)[C@H](CCCCN)NC(=O)CNC(=O)[C@H](CCCCN)NC(=O)[C@H](CC(C)C)NC(=O)[C@H](CCCCN)NC(=O)[C@H](CCCNC(=N)N)NC(=O)[C@@H](NC(=O)[C@H](CC(C)C)NC(=O)[C@H](CCCNC(=N)N)NC(=O)[C@@H](N)CCCNC(=N)N)[C@@H](C)CC)C(=O)N[C@@H](Cc1ccc(O)cc1)C(=O)N[C@@H](CC(C)C)C(=O)N[C@@H](Cc1ccc(O)cc1)C(=O)N[C@@H](Cc1ccccc1)C(=O)N[C@@H](CCCCN)C(=O)N[C@@H](CC(C)C)C(=O)N[C@@H](CCC(N)=O)C(=O)N[C@@H](CC(C)C)C(=O)N[C@@H](CC(C)C)C(=O)N[C@@H](CCCCN)C(=O)N[C@@H](CCCCN)C(N)=O		KCTC 1682, Mueller-Hinton broth	with: 150 mM NaCl		16 µM
CC[C@H](C)[C@H](N)C(=O)N[C@@H](CC(C)C)C(=O)NCC(=O)N[C@H](CCCNC(=N)N)C(=O)N[C@H](C(=O)N[C@@H](Cc1ccccc1)C(=O)N[C@@H](CCCCN)C(=O)NCC(=O)N[C@H](C(=O)N[C@@H](CCCCN)C(=O)N[C@@H](CC(=O)O)C(=O)N[C@H](C(=O)N[C@@H](CC(C)C)C(N)=O)[C@@H](C)CC)[C@@H](C)CC)[C@@H](C)CC	broth microdilution	ATCC 25922, Mueller-Hinton broth	16 h, 37 °C		12.5 µM
N=C(N)c1ccc(OCc2ccccc2COc2ccc(C(=N)N)cc2)cc1		BW25113 mcr-1	in combination, checkerboard, with: rifampicin		25 µg/mL
CC[C@H](C)[C@H](NC(=O)[C@@H]1CCCN1C(=O)[C@@H]1CCCN1C(=O)[C@H](CCCNC(=N)N)NC(=O)[C@H](Cc1ccccc1)NC(=O)[C@@H](N)CCCNC(=N)N)C(=O)N[C@@H](CCCNC(=N)N)C(=O)N[C@@H](CCCNC(=N)N)C(=O)N1CCC[C@H]1C(=O)N1CCC[C@H]1C(=O)N[C@H](C(=O)N[C@@H](CCCNC(=N)N)C(=O)N1CCC[C@H]1C(=O)N1CCC[C@H]1C(=O)N[C@@H](Cc1ccccc1)C(=O)N[C@@H](Cc1ccc(O)cc1)C(=O)N1CCC[C@H]1C(=O)N1CCC[C@H]1C(=O)N[C@@H](Cc1ccccc1)C(=O)N[C@@H](CCCNC(=N)N)C(=O)N1CCC[C@H]1C(=O)N1CCC[C@H]1C(=O)N[C@H](C(=O)N[C@@H](CCCNC(=N)N)C(=O)N1CCC[C@H]1C(=O)N1CCC[C@H]1C(=O)N[C@H](C(=O)N[C@@H](Cc1ccccc1)C(=O)N1CCC[C@H]1C(=O)N1CCC[C@H]1C(=O)N[C@H](C(=O)N[C@@H](CCCNC(=N)N)C(=O)N1CCC[C@H]1C(=O)N1CCC[C@H]1C(=O)N[C@@H](Cc1ccccc1)C(=O)N[C@@H](CCCNC(=N)N)C(=O)N1CCC[C@H]1C(=O)N1CCC[C@H]1C(=O)N[C@@H](CC(C)C)C(=O)NCC(=O)N1CCC[C@H]1C(=O)N[C@@H](Cc1ccccc1)C(=O)N1CCC[C@H]1C(=O)O)[C@@H](C)CC)[C@@H](C)CC)[C@@H](C)CC)[C@@H](C)CC	broth dilution	K12 BW25113	18 h, 37 °C		2.6 µM
C[C@@H](O)[C@H]1C(=O)N2C(C(=O)O)=C(S[C@@H]3CN[C@H](C(=O)N(C)C)C3)[C@H](C)[C@H]12		DH5α expressing KPC-100			0.25 µg/mL
CC[C@H](C)[C@H](NC(=O)[C@H](CCCCN)NC(=O)[C@H](CCCCN)NC(=O)CNC(=O)[C@H](Cc1ccccc1)NC(=O)[C@H](CCCNC(=N)N)NC(=O)[C@H](Cc1c[nH]c2ccccc12)NC(=O)[C@H](CCCCN)NC(=O)[C@@H](N)CCCCN)C(=O)N[C@@H](CCC(=O)O)C(=O)N[C@@H](CCCCN)C(=O)N[C@H](C(=O)NCC(=O)N[C@@H](CCCCN)C(=O)N[C@@H](CCCNC(=N)N)C(=O)N[C@H](C(=O)N[C@@H](Cc1ccccc1)C(=O)N[C@@H](CCCCN)C(=O)N[C@@H](C)C(=O)N[C@@H](CCC(=O)O)C(=O)N[C@@H](CCC(=O)O)C(=O)N[C@@H](CCCCN)C(=O)N[C@@H](C)C(=O)N[C@@H](CC(C)C)C(=O)N1CCC[C@H]1C(=O)N[C@H](C(=O)N[C@@H](CC(C)C)C(=O)N[C@@H](C)C(=O)NCC(=O)N[C@H](C(=O)N[C@@H](CCCCN)C(=O)N[C@@H](C)C(=O)N[C@H](C(=O)O)C(C)C)C(C)C)C(C)C)C(C)C)C(C)C	broth microdilution	K88, Mueller-Hinton broth	37 °C		1.18 µM
CC1(C)SC2C(NC(=O)C(NC(=O)C3=C(O)C(c4ccccc4)NC3=O)c3ccccc3)C(=O)N2C1C(=O)O (centres unmarked)	broth microdilution	Keio mutant JW5086-3	18 h, ferrienterobactin permease gene		25 µg/mL
CC[C@H](C)[C@H](NC(=O)CNC(=O)[C@H](CC(=O)O)NC(=O)[C@H](CCCNC(=N)N)NC(=O)[C@@H](NC(=O)[C@H](CC(N)=O)NC(=O)[C@H](CCCNC(=N)N)NC(=O)CNC(=O)[C@@H](NC(=O)[C@H](CCCCN)NC(=O)[C@H](CCC(=O)O)NC(=O)[C@@H](NC(=O)[C@H](CCCCN)NC(=O)[C@H](CCCCN)NC(=O)[C@H](Cc1ccccc1)NC(=O)[C@@H](NC(=O)[C@H](CCCCN)NC(=O)[C@H](Cc1c[nH]c2ccccc12)NC(=O)[C@@H](N)CCCNC(=N)N)[C@@H](C)CC)[C@@H](C)CC)C(C)C)C(C)C)C(=O)N[C@H](C(=O)N[C@@H](CCCCN)C(=O)N[C@@H](C)C(=O)NCC(=O)N1CCC[C@H]1C(=O)N[C@@H](C)C(=O)N[C@H](C(=O)N[C@@H](C)C(=O)N[C@H](C(=O)N[C@H](C(=O)NCC(=O)N[C@@H](CCC(N)=O)C(=O)N[C@@H](C)C(=O)N[C@@H](C)C(=O)N[C@H](C(=O)N[C@@H](C)C(=O)N[C@@H](C)C(=O)N[C@@H](CCCCN)C(N)=O)[C@@H](C)O)C(C)C)C(C)C)C(C)C)[C@@H](C)CC		KCTC 1682, Mueller-Hinton broth	16 h, 37 °C	growth inhibition over 99%	2 µM
C[C@H]1COc2c(N3CCN(C)CC3)c(F)cc3c(=O)c(C(=O)O)cn1c23	agar dilution	CDC 1001728 NDM-1			8 µg/mL
CCCCCCC/C=C/C(=O)N1C(=O)/C(=C(/C)O)C(=O)C1CO (centres unmarked)		K12 ΔtolC			50 µg/mL
CC1(C)SC2C(NC(=O)C(NC(=O)C3=C(O)C(Cc4ccsc4)NC3=O)c3ccccc3)C(=O)N2C1C(=O)O (centres unmarked)	broth microdilution	Keio mutant JW5195-1	18 h		25 µg/mL
N=C(N)NCCC[C@H](NC(=O)[C@H](Cc1c[nH]c2ccccc12)NC(=O)[C@@H](N)CCCNC(=N)N)C(=O)N[C@@H](Cc1c[nH]c2ccccc12)C(=O)N[C@@H](CCC(N)=O)C(=O)N[C@@H](Cc1ccccc1)C(=O)N[C@@H](CCC(N)=O)C(=O)N[C@@H](Cc1ccccc1)C(=O)N[C@@H](CCCCN)C(N)=O	broth microdilution, optical density				4.8 µM
CC[C@@H](C)[C@@H](N)C(=O)N[C@@H](C(=O)N[C@H](Cc1ccc(O)cc1)C(=O)N[C@@H](C(=O)N[C@H](CCN)C(=O)N[C@H](CC(C)C)C(=O)N[C@H](CO)C(=O)N[C@H](CCN)C(=O)N[C@@H](C(=O)N[C@H](CCN)C(=O)N[C@H](Cc1c[nH]cn1)C(=O)N[C@H](CCN)C(=O)N[C@H](C)C(=O)N[C@H](CCN)C(=O)N[C@H](CCN)C(N)=O)[C@H](C)CC)[C@H](C)CC)[C@H](C)CC	broth microdilution	CDC 0001, Mueller-Hinton broth			2 µg/mL
CC1(C)CC[C@]2(C(=O)O)CC[C@]3(C)C(=CC[C@@H]4[C@@]5(C)CC[C@H](O)C(C)(C)[C@@H]5CC[C@]43C)[C@@H]2C1		ZJ487, NDM-1/MCR-1			512 µg/mL
